Measured values pooled from the literature.
Each line is one published result; not all experiments were run side by side. ± marks the error that the study gave.
HDAC1: Histone deacetylase 1 (HDAC1, Homo sapiens, UniProt Q13547)
Chain of UniProt Q13547 (whole entry, looked up): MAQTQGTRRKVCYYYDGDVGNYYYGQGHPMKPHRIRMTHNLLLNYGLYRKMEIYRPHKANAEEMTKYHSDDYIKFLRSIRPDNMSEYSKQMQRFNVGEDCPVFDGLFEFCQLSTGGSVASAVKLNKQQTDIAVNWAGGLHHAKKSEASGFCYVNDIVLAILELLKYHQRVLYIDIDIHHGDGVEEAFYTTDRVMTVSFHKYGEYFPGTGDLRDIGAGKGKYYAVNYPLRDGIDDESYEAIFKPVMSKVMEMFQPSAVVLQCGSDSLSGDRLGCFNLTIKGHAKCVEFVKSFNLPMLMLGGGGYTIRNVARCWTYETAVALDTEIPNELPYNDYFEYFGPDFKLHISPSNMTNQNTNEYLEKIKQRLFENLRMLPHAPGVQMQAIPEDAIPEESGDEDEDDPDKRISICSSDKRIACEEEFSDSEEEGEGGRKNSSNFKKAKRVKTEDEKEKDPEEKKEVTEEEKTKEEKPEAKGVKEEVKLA
Faah: Fatty-acid amide hydrolase 1 (Faah, Mus musculus, UniProt O08914)
Chain of UniProt O08914 (whole entry, looked up): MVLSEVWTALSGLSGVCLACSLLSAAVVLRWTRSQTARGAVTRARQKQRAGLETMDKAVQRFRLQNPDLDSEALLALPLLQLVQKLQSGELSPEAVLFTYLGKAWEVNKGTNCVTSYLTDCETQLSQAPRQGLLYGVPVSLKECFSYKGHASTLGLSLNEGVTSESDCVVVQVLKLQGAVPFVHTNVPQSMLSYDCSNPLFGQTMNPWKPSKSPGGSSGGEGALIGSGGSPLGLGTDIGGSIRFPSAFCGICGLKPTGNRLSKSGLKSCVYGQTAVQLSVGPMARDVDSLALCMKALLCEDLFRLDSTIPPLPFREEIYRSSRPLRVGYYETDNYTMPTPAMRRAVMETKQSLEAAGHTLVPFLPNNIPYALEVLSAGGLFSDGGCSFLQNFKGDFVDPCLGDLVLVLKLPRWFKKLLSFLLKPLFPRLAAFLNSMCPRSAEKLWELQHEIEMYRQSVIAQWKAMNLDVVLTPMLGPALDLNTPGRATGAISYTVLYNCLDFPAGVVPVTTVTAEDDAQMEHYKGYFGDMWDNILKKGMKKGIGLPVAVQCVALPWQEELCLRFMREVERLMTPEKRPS
SIRT6: NAD-dependent protein deacylase sirtuin-6 (SIRT6, Homo sapiens, UniProt Q8N6T7)
Chain of UniProt Q8N6T7 (whole entry, looked up): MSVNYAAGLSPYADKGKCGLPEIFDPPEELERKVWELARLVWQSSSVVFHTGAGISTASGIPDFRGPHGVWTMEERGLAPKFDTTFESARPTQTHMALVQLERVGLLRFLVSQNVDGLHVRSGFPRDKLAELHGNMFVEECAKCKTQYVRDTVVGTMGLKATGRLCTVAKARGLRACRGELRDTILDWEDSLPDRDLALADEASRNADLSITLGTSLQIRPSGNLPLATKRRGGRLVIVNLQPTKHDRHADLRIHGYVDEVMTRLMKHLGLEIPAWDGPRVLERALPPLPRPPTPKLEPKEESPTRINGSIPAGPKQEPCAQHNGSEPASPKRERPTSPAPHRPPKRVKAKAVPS
CTSL: Procathepsin L (CTSL, Homo sapiens, UniProt P07711)
Chain of UniProt P07711 (whole entry, looked up): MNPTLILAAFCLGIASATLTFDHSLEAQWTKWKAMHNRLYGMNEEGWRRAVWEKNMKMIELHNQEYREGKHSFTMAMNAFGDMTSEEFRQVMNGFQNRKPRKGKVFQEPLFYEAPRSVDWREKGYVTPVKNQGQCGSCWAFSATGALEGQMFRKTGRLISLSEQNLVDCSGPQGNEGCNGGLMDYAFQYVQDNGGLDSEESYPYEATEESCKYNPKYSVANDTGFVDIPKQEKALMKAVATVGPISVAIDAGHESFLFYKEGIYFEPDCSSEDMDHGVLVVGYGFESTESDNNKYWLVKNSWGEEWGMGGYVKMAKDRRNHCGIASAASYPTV
Neuronal acetylcholine receptor; alpha4/beta2: Neuronal acetylcholine receptor; alpha4/beta2 (Homo sapiens, UniProt P17787+P43681)
Chain of UniProt P43681 (whole entry, looked up): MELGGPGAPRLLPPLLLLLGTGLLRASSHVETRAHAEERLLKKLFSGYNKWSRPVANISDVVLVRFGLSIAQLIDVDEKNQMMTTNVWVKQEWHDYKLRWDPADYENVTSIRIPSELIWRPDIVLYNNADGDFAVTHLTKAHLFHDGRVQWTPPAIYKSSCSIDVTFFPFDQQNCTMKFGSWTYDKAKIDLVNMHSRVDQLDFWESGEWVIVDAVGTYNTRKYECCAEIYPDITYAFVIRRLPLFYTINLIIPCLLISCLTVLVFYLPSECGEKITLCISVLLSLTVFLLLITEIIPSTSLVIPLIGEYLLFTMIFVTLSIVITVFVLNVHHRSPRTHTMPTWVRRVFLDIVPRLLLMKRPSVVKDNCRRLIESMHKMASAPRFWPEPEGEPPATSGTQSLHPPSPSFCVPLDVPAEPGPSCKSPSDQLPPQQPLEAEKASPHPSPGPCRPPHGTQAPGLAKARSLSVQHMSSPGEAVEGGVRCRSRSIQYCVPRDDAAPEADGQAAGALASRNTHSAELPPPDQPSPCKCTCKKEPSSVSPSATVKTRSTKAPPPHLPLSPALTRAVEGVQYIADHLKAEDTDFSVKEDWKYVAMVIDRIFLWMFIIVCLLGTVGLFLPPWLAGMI
Chain of UniProt P17787 (whole entry, looked up): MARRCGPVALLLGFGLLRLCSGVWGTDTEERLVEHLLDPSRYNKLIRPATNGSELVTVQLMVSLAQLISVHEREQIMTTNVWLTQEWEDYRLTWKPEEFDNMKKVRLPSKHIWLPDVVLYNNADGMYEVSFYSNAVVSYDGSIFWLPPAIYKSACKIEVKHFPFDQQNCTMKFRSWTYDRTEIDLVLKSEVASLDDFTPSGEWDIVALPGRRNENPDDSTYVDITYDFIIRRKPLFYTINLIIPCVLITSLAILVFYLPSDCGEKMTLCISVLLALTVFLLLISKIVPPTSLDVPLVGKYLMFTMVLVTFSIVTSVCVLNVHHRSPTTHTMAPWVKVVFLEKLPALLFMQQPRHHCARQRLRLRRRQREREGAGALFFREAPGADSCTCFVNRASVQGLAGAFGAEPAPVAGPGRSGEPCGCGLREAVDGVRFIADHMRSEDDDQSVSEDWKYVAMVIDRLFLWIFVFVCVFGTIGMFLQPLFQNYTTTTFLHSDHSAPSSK
Chain of UniProt P51531 (whole entry, looked up): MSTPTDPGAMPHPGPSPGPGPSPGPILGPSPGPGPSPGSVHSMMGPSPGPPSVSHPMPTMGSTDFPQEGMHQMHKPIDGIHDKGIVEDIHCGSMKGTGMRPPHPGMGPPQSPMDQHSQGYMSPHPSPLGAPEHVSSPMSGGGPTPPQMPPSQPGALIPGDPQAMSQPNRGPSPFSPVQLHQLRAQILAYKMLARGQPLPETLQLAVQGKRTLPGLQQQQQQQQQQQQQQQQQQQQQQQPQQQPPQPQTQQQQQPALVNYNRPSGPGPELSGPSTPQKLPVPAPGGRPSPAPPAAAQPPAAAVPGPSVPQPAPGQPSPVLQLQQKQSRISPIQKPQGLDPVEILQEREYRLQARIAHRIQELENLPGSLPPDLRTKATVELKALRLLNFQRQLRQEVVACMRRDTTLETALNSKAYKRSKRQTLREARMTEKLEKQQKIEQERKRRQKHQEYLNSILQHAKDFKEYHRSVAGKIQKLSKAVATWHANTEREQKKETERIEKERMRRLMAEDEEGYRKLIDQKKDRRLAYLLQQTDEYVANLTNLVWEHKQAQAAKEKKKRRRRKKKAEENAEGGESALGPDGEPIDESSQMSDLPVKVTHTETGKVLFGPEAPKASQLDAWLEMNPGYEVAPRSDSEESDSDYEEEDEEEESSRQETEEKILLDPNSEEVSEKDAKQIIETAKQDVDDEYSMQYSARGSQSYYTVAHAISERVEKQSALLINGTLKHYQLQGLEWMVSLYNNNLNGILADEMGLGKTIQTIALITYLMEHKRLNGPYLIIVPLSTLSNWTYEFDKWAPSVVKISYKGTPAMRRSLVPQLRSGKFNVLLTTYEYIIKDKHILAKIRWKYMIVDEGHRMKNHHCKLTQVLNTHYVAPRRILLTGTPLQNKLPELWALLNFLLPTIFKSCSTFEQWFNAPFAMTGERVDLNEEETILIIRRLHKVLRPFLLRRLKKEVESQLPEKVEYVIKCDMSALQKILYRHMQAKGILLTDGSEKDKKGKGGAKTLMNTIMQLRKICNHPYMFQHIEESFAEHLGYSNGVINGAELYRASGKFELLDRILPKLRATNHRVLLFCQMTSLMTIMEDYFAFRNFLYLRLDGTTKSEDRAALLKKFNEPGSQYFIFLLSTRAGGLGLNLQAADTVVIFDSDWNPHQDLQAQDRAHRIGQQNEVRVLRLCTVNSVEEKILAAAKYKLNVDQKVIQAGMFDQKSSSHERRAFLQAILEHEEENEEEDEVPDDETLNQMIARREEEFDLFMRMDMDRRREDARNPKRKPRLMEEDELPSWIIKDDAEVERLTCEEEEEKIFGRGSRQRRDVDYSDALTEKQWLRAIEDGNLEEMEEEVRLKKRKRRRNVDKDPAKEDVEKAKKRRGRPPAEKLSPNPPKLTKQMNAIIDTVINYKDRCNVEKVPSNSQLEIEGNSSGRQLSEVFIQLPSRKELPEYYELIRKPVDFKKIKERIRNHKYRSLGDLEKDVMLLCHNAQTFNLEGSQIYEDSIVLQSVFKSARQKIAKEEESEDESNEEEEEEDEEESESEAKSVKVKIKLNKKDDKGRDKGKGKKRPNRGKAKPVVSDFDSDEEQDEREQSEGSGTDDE
Chain of UniProt P48145 (whole entry, looked up): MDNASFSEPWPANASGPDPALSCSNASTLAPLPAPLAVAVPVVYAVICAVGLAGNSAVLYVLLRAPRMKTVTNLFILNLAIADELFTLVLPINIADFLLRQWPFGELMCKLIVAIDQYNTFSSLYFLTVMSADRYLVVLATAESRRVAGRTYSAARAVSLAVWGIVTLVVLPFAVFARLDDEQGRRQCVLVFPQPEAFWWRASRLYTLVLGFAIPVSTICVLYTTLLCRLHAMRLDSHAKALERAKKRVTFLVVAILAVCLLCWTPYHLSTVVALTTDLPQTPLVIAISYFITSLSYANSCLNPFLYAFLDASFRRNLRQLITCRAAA

COc1ncc2nc(C)n(Cc3ncc(S(N)(=O)=O)cc3F)c2c1-c1ccccc1
inhibition (OPRD1 (Homo sapiens, UniProt P41143); antagonist, cell-based; 10 µM): -28.4%

Cc1c(COc2cc(OCc3cccc(C#N)c3)c(CNC(C)(CO)CO)cc2Cl)cccc1-c1cccc(OCc2ccc(/C=C/C(=O)NO)cc2)c1
inhibition (HDAC1; enzyme activity, inhibitor; 1 µM): 21.8%

COc1cc(-n2cc3cc(F)cc(C(N)=O)c3n2)cc(Cl)c1C1CC(O)(CCO)Cc2ccccc21 (centres unmarked)
inhibition (PARP9 (Homo sapiens, UniProt Q8IXQ6); enzyme activity, inhibitor; 10 µM): 6.92%

Cc1c(COc2cc(OCc3cccc(C#N)c3)c(CNC(CO)(CO)CO)cc2Cl)cccc1-c1cccc(OCCCCCCC(=O)NO)c1
inhibition (HDAC1; enzyme activity, inhibitor; 1 µM): 76.6%

C=CC(=O)Nc1cccc(-c2cnc3[nH]cc(C(=O)NC(C)(C)C)c3n2)c1
inhibition (MAPKAPK3 (Homo sapiens, UniProt Q16644); enzyme activity, inhibitor; 0.1 µM): 1%

CC(=O)NCCNCc1cc(Cl)c(OCc2cccc(-c3cccc(OCCCCCC(=O)NO)c3)c2C)cc1OCc1cccc(C#N)c1
inhibition (HDAC1; enzyme activity, inhibitor; 1 µM): 68.7%

COc1cc(-c2cn(C)c(=O)c3cnccc23)cc(OC)c1CN(C)C
inhibition (SWI/SNF-related matrix-associated actin-dependent regulator of chromatin subfamily A member 2, isoform B (SMARCA2, Homo sapiens, UniProt P51531); 1 µM): -2.4%

O=C(N1CCOCC1)n1ccnn1
inhibition (Faah; serine hydrolase activity, inhibitor, competitive gel-based ABPP; mouse T-cell proteome; 1 µM, 30 min, 37 °C): > 95%

O=C1CO[C@H](CNC(=O)C2(c3ccc(Cl)cc3)CC2)CN1C1Cc2ccccc2C1
inhibition (CCR5 (Homo sapiens, UniProt P51681); β-arrestin recruitment, antagonist; CCR5; 1 µM): 2%

Nc1ccc(C(=O)NOCc2ccccc2)cc1[N+](=O)[O-]
inhibition (SIRT6; enzyme activity, inhibitor, fluorescence; 100 µM): 54.9%

CN(Cc1ccc(/C=C/C(=O)NO)cc1)CC12CC3CC(CC(C3)C1)C2
inhibition (human NK2 receptor; agonist radioligand binding; 0.05 µM): -4%

CC(=O)NCCCC[C@H](NC(=O)[C@@H](NC(=O)[C@H](C)NC(=O)[C@H](CC(C)C)NC(=O)[C@H](CCC(N)=O)NC(=O)[C@H](CCCCN)NC(=O)[C@H](CCCNC(=N)N)NC(=O)[C@@H]1CCCN1C(=O)[C@H](C)NC(=O)[C@@H](N)CCCCN)[C@@H](C)O)C(=O)N[C@@H](C)C(=O)N[C@@H](C)C(=O)N[C@@H](CCCNC(=N)N)C(=O)N[C@@H](CCCCN)C(=O)N[C@@H](CO)C(=O)N[C@@H](C)C(=O)N1CCC[C@H]1C(=O)N[C@@H](C)C(=O)O
inhibition (CTSL; enzyme activity, inhibitor; 25 µM, pH 6.0, 25 °C, together with: Z-LR-Mca at 0.16 x Km): 82 ± 2%

Cn1sc(Nc2c(Cl)ccc3ncccc23)c(C#N)c1=O
inhibition (NAMPT (Homo sapiens, UniProt P43490); enzyme activity, inhibitor; 10 µM): 1%

O=C1c2sc(-c3ccc(N4CCC(F)C4)nc3F)nc2CCN1c1cccnc1 (centres unmarked)
inhibition (SSTR4 (Homo sapiens, UniProt P31391); ligand displacement, radioligand; 1 µM): -4%

C[Si]1(C[C@H](CN)CC(=O)O)CCCC1
inhibition (Grin1 (Rattus norvegicus, UniProt P35439); ligand displacement, radioligand; 70 µM): -6%

CC(C)(C)c1ccccc1OS(=O)(=O)Oc1cccc(C(=O)NO)c1
inhibition (HDAC5 (Homo sapiens, UniProt Q9UQL6); enzyme activity, inhibitor, fluorescence; 10 µM): 10%

CCn1cc(C(=O)O)c(=O)c2c(N)c(F)c(NC3CCCCC3)cc21
inhibition (FAM20C (Homo sapiens, UniProt Q8IXL6); kinase activity; 0.1 µM, together with: ATP at Km): 8.5%

CCN(CC)CCCC(C)NCc1nn2c(-c3ccccc3)nnc2s1 (centres unmarked)
inhibition (CREB-binding protein, bromodomain (CREBBP, Homo sapiens, UniProt Q92793); cell-free assay, inhibitor; 50 µM): 98.2%

N#C/C(=C\c1ccc(-c2cc(Cl)ccc2Cl)o1)C(=O)Nc1cccc2ncccc12
inhibition (SIRT6; enzyme activity, inhibitor; 10 µM, together with: myristoylated substrate): < 5%

CC(C)(C)CNC(=O)C[C@H](NC(=O)CCc1ccccc1)C(=O)N[C@@H](Cc1cccnc1)C(=O)NCc1ccccc1Cl
inhibition (CTSL; enzyme activity, inhibitor; 100 µM): 28%

C[Si](C)(C)C[C@H](CN)CC(=O)O
inhibition (nicotinic acetylcholine receptor, rat; binding, radioligand binding; 250 µM, together with: [3H]cytisine): -1%

CCCCCCCCCCCCCCN(O)C(=O)CCCCC[C@@H]1NC(=O)[C@H]([C@@H](C)CC)NC(=O)[C@H](Cc2ccccc2C(F)(F)F)NC(=O)CCSCc2cccc(n2)CSCCCNC1=O
inhibition (HDAC1; 30 µM): 60%

Cc1c(COc2cc(OCc3cccc(C#N)c3)c(CNC(C)(CO)CO)cc2Cl)cccc1-c1cccc(OCc2ccc(C(=O)NO)cc2)c1
inhibition (HDAC1; enzyme activity, inhibitor; 1 µM): 20.5%

Cc1ccc(CNC(=O)C(CCc2ccccc2)NC(=O)C(NC(=O)c2ccc(OCc3ccc(C(C)(C)C)cc3)cc2)C(C)O)cc1 (centres unmarked)
inhibition (CTSL; enzyme activity, inhibitor; 100 µM): 4%

Cc1c(COc2cc(OCc3cccc(C#N)c3)c(CN3CCCC[C@@H]3C(=O)O)cc2Cl)cccc1-c1cccc(OCCCCCC(=O)NO)c1
inhibition (HDAC1; enzyme activity, inhibitor; 1 µM): 85.3%

CN(C)C(=O)n1ccnn1
inhibition (Faah; serine hydrolase activity, inhibitor, competitive gel-based ABPP; mouse T-cell proteome; 1 µM, 30 min, 37 °C): > 95%

CCn1cc(-c2cccc(C(F)(F)F)c2)c2sc(C(=N)NC3CCS(=O)(=O)CC3)cc2c1=O
inhibition (SMARCA2 (Homo sapiens, UniProt P51531); 1 µM): -8.65%

C=CC(=O)N1Cc2nc(-c3cc(-c4cc(Cl)cnc4Cl)c(F)cc3F)n(-c3ccncn3)c2C1
inhibition (PI4KA (Homo sapiens, UniProt P42356); cell-free assay, inhibitor; 1 µM): -0.5%

COc1ccc(C#CC2=C[C@H]3C[C@@]4(OC(=O)C=C24)[C@H]2CC[C@H](C(OC)OC)N32)cc1
inhibition (Neuronal acetylcholine receptor; alpha4/beta2; ligand displacement, radioligand; 10 µM): 1%

COCC(=O)N1CCc2cc(-c3csc(NC(=O)c4cc(OC)cc(OC)c4)n3)ccc21
inhibition (Slc6a1 (Rattus norvegicus, UniProt P23978); ligand displacement, radioligand; 10 µM): 32%

Cc1nc2c(F)cc(-c3nc(Nc4ccc(CNC(=O)CCCCCCC(=O)NO)cc4)ncc3F)cc2n1C(C)C
inhibition (CaMKIß(h) human kinase; enzyme activity; 1 µM): 42%

CC(C)c1ccccc1OS(=O)(=O)Oc1cccc(C(=O)NO)c1
inhibition (HDAC1; enzyme activity, inhibitor, fluorescence; 10 µM): 22%

CN(C)C/C=C/C(=O)Nc1ccc2nc(NCCCCCN(C)C)nc(NCCCCCCN(C)C)c2c1
inhibition (PRMT7 (Homo sapiens, UniProt Q9NVM4); enzyme activity, inhibitor, radiometric; 10 µM): 46%

Cn1cc(-c2ccc3ccccc3c2)c2ccc(Cl)nc21
inhibition (Gag-Pol polyprotein, integrase (gag-pol, Human immunodeficiency virus type 1 group M subtype B, UniProt P04585); enzyme activity, inhibitor; 10 µM): 55.8%

CC(C)C[C@H](NC(=O)CNC(=O)[C@H](C)NC(=O)[C@H](C)NC(=O)[C@H](CCCNC(=N)N)NC(=O)CNC(=O)CCCCNC(=O)CCCCNC(=O)CCCCNC(=O)[C@H](CCCCN)NC(=O)[C@H](C)NC(=O)[C@@H](N)Cc1c[nH]c2ccccc12)C(=O)N[C@@H](CC(C)C)C(=O)N[C@@H](CO)C(N)=O
inhibition (NPBWR1 (Homo sapiens, UniProt P48145); calcium signal, antagonist; 10 µM): 95%

Brc1ccccc1-c1nnc(CSc2nnnn2-c2ccccc2)o1
inhibition (sigma receptor 2; radioligand binding; 10 µM): -7%

O=C1c2sc(-c3ccc(N4CCC(CO)CC4)nc3F)nc2CCN1c1cccnc1
inhibition (Neuronal acetylcholine receptor; alpha4/beta2; ligand displacement, radioligand; 1 µM): -11%

COc1ccc(S(=O)(=O)N2CCc3ccccc3C2)cc1N1CCN(C(=O)c2ccc(F)cc2C(F)(F)F)CC1
inhibition (Abcc8 (Rattus norvegicus, UniProt Q09429); radioligand binding, antagonist; 1 µM): 4%

Repeated from above:
COc1cc(-n2cc3cc(F)cc(C(N)=O)c3n2)cc(Cl)c1C1CC(O)(CCO)Cc2ccccc21 (centres unmarked)
inhibition (PARP9 (Homo sapiens, UniProt Q8IXQ6); enzyme activity, inhibitor; 10 µM): 6.92%

Cc1c(COc2cc(OCc3cccc(C#N)c3)c(CNC(CO)(CO)CO)cc2Cl)cccc1-c1cccc(OCCCCCCC(=O)NO)c1
inhibition (HDAC1; enzyme activity, inhibitor; 1 µM): 76.6%

C=CC(=O)Nc1cccc(-c2cnc3[nH]cc(C(=O)NC(C)(C)C)c3n2)c1
inhibition (MAPKAPK3 (Homo sapiens, UniProt Q16644); enzyme activity, inhibitor; 0.1 µM): 1%

CC(=O)NCCNCc1cc(Cl)c(OCc2cccc(-c3cccc(OCCCCCC(=O)NO)c3)c2C)cc1OCc1cccc(C#N)c1
inhibition (HDAC1; enzyme activity, inhibitor; 1 µM): 68.7%
